Measured values collected from several papers.
Lines come from different studies, so protocols differ. “And” joins repeats or separate records; there may be more than shown. Numbers after ± are the reported error.
rep main protease: Replicase polyprotein 1ab, main protease (rep, Severe acute respiratory syndrome coronavirus 2, UniProt P0DTD1)
Spike glycoprotein: Spike glycoprotein (Severe acute respiratory syndrome coronavirus 2, UniProt P0DTC2)
ASIC1: Acid-sensing ion channel 1 (ASIC1, Homo sapiens, UniProt P78348)

SMILES	tested on	assay	system	setting	scale	measurement	value
Cc1c[nH]c2ncc(C(=O)N[C@H]3[C@H](CNc4cc(=O)n5ccccc5n4)CCC34CCC4)cc12	rep main protease	enzyme activity, inhibitor	–	5 µM, mean of runs	–	inhibition	17.9%
O=C(/C=C/c1ccc(O)c(O)c1/C=C/c1ccc(O)c(O)c1)O[C@H](Cc1ccc(O)c(O)c1)C(=O)O	Spike glycoprotein	binding	–	–	–	koff	0.00879 s⁻¹
NC(=O)NC[C@H](N)C(=O)O	rep main protease	reporter gene (Gaussia luciferase), inhibitor	–	20 µM	–	inhibition	2.13%
Cc1ccc(C(C)(C)C(=O)NC[C@H](NC(=O)c2cccnc2)c2ccc3ccccc3c2)cc1	rep main protease	enzyme activity, inhibitor	–	5 µM, run 2	–	inhibition	11%
CCOC1=C(O)C(=O)O[C@@H]1[C@@H](O)CO	rep main protease	reporter gene (Gaussia luciferase), inhibitor	–	20 µM	–	inhibition	1.54%
CC1(C)Cc2ccc(C(=O)N3CCCC[C@H](C4CN(C(=O)c5cncc(O)c5)C4)C3)cc2O1	rep main protease	enzyme activity, inhibitor	–	5 µM, mean of runs	–	inhibition	11.5%
CCc1c(C(=O)C(N)=O)c2c(OCC(=O)O)cccc2n1Cc1ccccc1	Daboia russelii venom phospholipase A2	enzyme activity, inhibitor	TN population	10 µM, together with: NOB substrate	relative to: venom alone	remaining activity	30% and 32% and 34%
Cc1ccc(S(=O)(=O)N[C@@H](Cc2ccccc2)C(=O)CCl)cc1	rep main protease	reporter gene (mKate2), inhibitor	–	20 µM	–	inhibition	-0.64%
CC[C@H](C)[C@H](NC(=O)[C@@H]1CCCN1C(=O)[C@H](C)NC(=O)[C@@H]1CSSC[C@@H]2NC(=O)[C@H](CC(=O)O)NC(=O)[C@H](CCCNC(=N)N)NC(=O)[C@H](CCC(=O)O)NC(=O)[C@H](CCCNC(=N)N)NC(=O)CNC(=O)[C@H](CC(=O)O)NC(=O)[C@@H]3CSSC[C@H](NC(=O)[C@H](CCC(=O)O)NC(=O)[C@H](CC(C)C)NC(=O)CNC(=O)[C@H](C)NC(=O)[C@H](CSSC[C@H](NC(=O)[C@H](Cc4ccccc4)NC(=O)[C@@H](N)CO)C(=O)N[C@@H](CC(C)C)C(=O)N[C@@H](C(C)C)C(=O)N[C@@H](CCCCN)C(=O)N[C@@H](Cc4c[nH]c5ccccc45)C(=O)N[C@@H](CCCCN)C(=O)N[C@@H](CCC(N)=O)C(=O)N3)NC2=O)C(=O)N[C@@H](Cc2c[nH]c3ccccc23)C(=O)N[C@@H](CCCCN)C(=O)N[C@@H](CCCNC(=N)N)C(=O)N[C@@H](CO)C(=O)NCC(=O)N[C@@H](CO)C(=O)N[C@@H](CCCCN)C(=O)N[C@@H](CO)C(=O)N[C@@H](CO)C(=O)N[C@@H](C(C)C)C(=O)N1)C(=O)N[C@H](C(=O)O)[C@@H](C)O	ASIC1	ion current, outside-out patch clamp	HEK-293T	1 µM	relative to: same patch before toxin	deactivation slowing	2.1 ± 0.4 fold
O=C(N[C@@H](CNC(=O)[C@H]1CCCc2[nH]cnc21)c1ccc2ccccc2c1)c1cccnn1	rep main protease	enzyme activity, inhibitor	–	5 µM, mean of runs	–	inhibition	14.4%
O=c1cc(-c2ccc(O)cc2)oc2cc(O)c(O)c(O)c12	Spike glycoprotein	binding, BLI	–	–	–	kon	95.3 M⁻¹ s⁻¹
CC(=O)OCCN1C(=O)c2c(C)nc3ccc(S(=O)(=O)N4CCOCC4)cc3c2C1=O	rep main protease	reporter gene (Gaussia luciferase), inhibitor	–	20 µM	–	inhibition	1.57%
O=C1NC(=O)C2(CC(C(=O)N3CCC[C@H]([C@H]4CCCN(C(=O)Cc5cccnc5)C4)C3)C2)N1 (stereo partly drawn)	rep main protease	enzyme activity, inhibitor	–	5 µM, mean of runs	–	inhibition	11.1%
COc1c(/C=C/C(=O)c2ccc(O)cc2)ccc(O)c1O	Spike glycoprotein	binding, biolayer interferometry	–	–	–	kon	113 M⁻¹ s⁻¹
COc1ccc2c(Sc3ccc(Cl)cc3)c(C(=O)NCCCN3CCCCC3)[nH]c2c1	SARS-CoV-2	cytopathic effect	USA_WA1/2020	round 2, 5-point	–	efficacy	110%
CS(=O)(=O)C=CCNC(=O)c1ccc2c(c1)NC(=O)CC2	Polyprotein P1234, nsP2 protease domain (Chikungunya virus, UniProt Q5XXP4)	time-dependent inhibitor	–	–	–	kinact/KI	160 ± 20 M⁻¹ s⁻¹
CC(=O)c1cc([N+](=O)[O-])c(Sc2cccc(Cl)c2Cl)s1	rep main protease	viral replication, mKate2 reporter	SARS-CoV-2	20 µM	–	inhibition	-1.82%

SMILES	tested on	assay	system	setting	scale	measurement	value
CC(C)(O)C(F)(F)C(=O)N[C@@H](CNc1ccc2nnnn2n1)c1ccc2ccccc2c1	rep main protease	enzyme activity, inhibitor	–	5 µM, mean of runs	–	inhibition	12.6%
O=C(NS(=O)(=O)c1ccc(Br)s1)c1ccc(Cl)cc1Cl	rep main protease	reporter gene (Gaussia luciferase), inhibitor	–	20 µM	–	inhibition	-0.288%
Cc1nc(C(=O)N2CC[C@H](N[C@@H]3N=C(c4ccccc4)Nc4ccccc43)C2)cc(=O)[nH]1	rep main protease	enzyme activity, inhibitor	–	5 µM, run 1	–	inhibition	8.2%
C[C@H]1c2cccc(O)c2C(=O)C2=C(O)[C@]3(O)C(=O)C(C(N)=O)=C(O)[C@@H](N(C)C)[C@@H]3[C@@H](O)[C@@H]21	rep main protease	reporter gene (Gaussia luciferase), inhibitor	–	20 µM	–	inhibition	3.89%
Cc1cc(C)c(CNC(=O)c2cc(Cl)c3c(c2C)O[C@@](C)([C@H]2CC[C@H](N(C)C)CC2)O3)c(=O)[nH]1	–	–	human, relapsed/refractory NHL	concentration not given, all TEAEs, grade 3	–	COVID-19 pneumonia incidence	1%
CC[C@H](C)[C@H](NC(=O)[C@@H]1CCCN1C(=O)[C@H](C)NC(=O)[C@@H]1CSSC[C@@H]2NC(=O)[C@H](CC(=O)O)NC(=O)[C@H](CCCNC(=N)N)NC(=O)[C@H](CCC(=O)O)NC(=O)[C@H](CCCNC(=N)N)NC(=O)CNC(=O)[C@H](CC(=O)O)NC(=O)[C@@H]3CSSC[C@H](NC(=O)[C@H](CCC(=O)O)NC(=O)[C@H](CC(C)C)NC(=O)CNC(=O)[C@H](C)NC(=O)[C@H](CSSC[C@H](NC(=O)[C@H](Cc4ccccc4)NC(=O)[C@@H](N)CO)C(=O)N[C@@H](CC(C)C)C(=O)N[C@@H](C(C)C)C(=O)N[C@@H](CCCCN)C(=O)N[C@@H](Cc4c[nH]c5ccccc45)C(=O)N[C@@H](CCCCN)C(=O)N[C@@H](CCC(N)=O)C(=O)N3)NC2=O)C(=O)N[C@@H](Cc2c[nH]c3ccccc23)C(=O)N[C@@H](CCCCN)C(=O)N[C@@H](CCCNC(=N)N)C(=O)N[C@@H](CCCNC(=N)N)C(=O)NCC(=O)N[C@@H](CC(N)=O)C(=O)N[C@@H](CCCCN)C(=O)N[C@@H](CO)C(=O)N[C@@H](CO)C(=O)N[C@@H](C(C)C)C(=O)N1)C(=O)N[C@H](C(=O)O)[C@@H](C)O	ASIC1	binding, SPR	–	pH 7.5	–	kon	4.79e+07 M⁻¹ s⁻¹
O=C(O)CNC(=O)CC1SC(=NN=Cc2c(-c3ccccc3)[nH]c3ccccc23)NC1=O (stereo not drawn)	Replicase polyprotein 1ab, nsp14 N7-methyltransferase (rep, Severe acute respiratory syndrome coronavirus 2, UniProt P0DTD1)	N7-methyltransferase activity, inhibitor, Py-FLINT	–	–	–	Hill slope	1.12 ± 0.12
Nc1ncnc2c([C@@H]3N[C@H](CO)[C@@H](O)[C@H]3O)c[nH]c12	Severe acute respiratory syndrome coronavirus	viral replication, inhibitor	Vero 76	94.7 µM	–	inhibition	93.4%
Cn1cnc(Cn2c(=O)[nH]/c(=N\c3cc4cn(C)nc4cc3Cl)n(Cc3cc(F)c(F)cc3F)c2=O)n1	–	–	human, all renal function groups	oral, 375 mg, hypertriglyceridaemia TEAE, Severe severity	–	patients with adverse event	0%
O=c1cc(-c2ccccc2)oc2c(O)c(O)ccc12	Spike glycoprotein	binding, BLI	–	–	–	kon	1220 M⁻¹ s⁻¹
O=C(O)CC[C@H]1CC[C@@](c2cc(F)ccc2F)(S(=O)(=O)c2ccc(Cl)cc2)CC1	rep main protease	reporter gene (mKate2), inhibitor	–	20 µM	–	inhibition	-0.624%
O=C(NC[C@H]1CC2(CCC2)CN1C(=O)Cc1ccccc1O)c1ccc2c(c1)CCNC2=O	rep main protease	enzyme activity, inhibitor	–	5 µM, run 2	–	inhibition	15%
O=C(O)c1cc(OCCNC(=O)c2cc(OCc3cn([C@@H]4O[C@H](CO)[C@H](O[C@H]5O[C@H](CO)[C@H](O)[C@H](O)[C@H]5O)[C@H](O)[C@H]4O)nn3)cc(OCc3cn([C@@H]4O[C@H](CO)[C@H](O[C@H]5O[C@H](CO)[C@H](O)[C@H](O)[C@H]5O)[C@H](O)[C@H]4O)nn3)c2)cc(OCCNC(=O)c2cc(OCc3cn([C@@H]4O[C@H](CO)[C@H](O[C@H]5O[C@H](CO)[C@H](O)[C@H](O)[C@H]5O)[C@H](O)[C@H]4O)nn3)cc(OCc3cn([C@@H]4O[C@H](CO)[C@H](O[C@H]5O[C@H](CO)[C@H](O)[C@H](O)[C@H]5O)[C@H](O)[C@H]4O)nn3)c2)c1	Shiga toxin subunit B (stxB, Shigella dysenteriae, UniProt Q7BQ98)	–	Escherichia coli	–	–	log IC50	-4.7
CC[C@H](C)[C@H](NC(=O)[C@H](CC(C)C)NC(=O)[C@H](Cc1c[nH]c2ccccc12)NC(=O)[C@H](CCC(N)=O)NC(=O)[C@@H](NC(=O)[C@H](Cc1ccccc1)NC(=O)[C@H](C)NC(=O)[C@H](CCCCNC(=O)COCCOCCNC(=O)COCCOCCNC(=O)CC[C@H](NC(=O)CCCCCCCCCCCCCCCCCCC(=O)O)C(=O)O)NC(=O)[C@H](CCC(N)=O)NC(=O)[C@H](C)NC(=O)[C@@H](NC(=O)[C@H](CCCCN)NC(=O)[C@H](CC(=O)O)NC(=O)[C@H](CC(C)C)NC(=O)C(C)(C)NC(=O)[C@@H](NC(=O)[C@H](CO)NC(=O)[C@H](Cc1ccc(O)cc1)NC(=O)[C@H](CC(=O)O)NC(=O)[C@H](CO)NC(=O)[C@@H](NC(=O)[C@H](Cc1ccccc1)NC(=O)[C@@H](NC(=O)CNC(=O)[C@H](CCC(=O)O)NC(=O)C(C)(C)NC(=O)[C@@H](N)Cc1ccc(O)cc1)[C@@H](C)O)[C@@H](C)O)[C@@H](C)CC)[C@@H](C)CC)C(C)C)C(=O)N[C@@H](C)C(=O)NCC(=O)NCC(=O)N1CCC[C@H]1C(=O)N[C@@H](CO)C(=O)N[C@@H](CO)C(=O)NCC(=O)N[C@@H](C)C(=O)N1CCC[C@H]1C(=O)N1CCC[C@H]1C(=O)N1CCC[C@H]1C(=O)N[C@@H](CO)C(N)=O	–	–	healthy subjects	all MAD doses	–	subjects with application site erythema	0%
CC(C)=CCC[C@](C)(O[C@@H]1O[C@H](CO[C@@H]2O[C@H](CO)[C@@H](O)[C@H](O)[C@H]2O)[C@@H](O)[C@H](O)[C@H]1O)[C@H]1CC[C@]2(C)[C@@H]1[C@H](O)C[C@@H]1[C@@]3(C)CC[C@H](O[C@@H]4O[C@H](CO)[C@@H](O)[C@H](O)[C@H]4O)C(C)(C)[C@@H]3CC[C@]12C	Spike glycoprotein	binding, BLI	–	–	–	koff	0.207 s⁻¹
Nc1cc(OCCCNC(=O)c2ccc(S(=O)(=O)F)cc2)ccn1	cya (Bacillus anthracis, UniProt P40136)	–	–	–	–	kinact	0.000717 s⁻¹

For quick reference, copied from above:
SMILES	tested on	assay	system	setting	scale	measurement	value
CCc1c(C(=O)C(N)=O)c2c(OCC(=O)O)cccc2n1Cc1ccccc1	Daboia russelii venom phospholipase A2	enzyme activity, inhibitor	TN population	10 µM, together with: NOB substrate	relative to: venom alone	remaining activity	30% and 32% and 34%
Cc1ccc(S(=O)(=O)N[C@@H](Cc2ccccc2)C(=O)CCl)cc1	rep main protease	reporter gene (mKate2), inhibitor	–	20 µM	–	inhibition	-0.64%
CC[C@H](C)[C@H](NC(=O)[C@@H]1CCCN1C(=O)[C@H](C)NC(=O)[C@@H]1CSSC[C@@H]2NC(=O)[C@H](CC(=O)O)NC(=O)[C@H](CCCNC(=N)N)NC(=O)[C@H](CCC(=O)O)NC(=O)[C@H](CCCNC(=N)N)NC(=O)CNC(=O)[C@H](CC(=O)O)NC(=O)[C@@H]3CSSC[C@H](NC(=O)[C@H](CCC(=O)O)NC(=O)[C@H](CC(C)C)NC(=O)CNC(=O)[C@H](C)NC(=O)[C@H](CSSC[C@H](NC(=O)[C@H](Cc4ccccc4)NC(=O)[C@@H](N)CO)C(=O)N[C@@H](CC(C)C)C(=O)N[C@@H](C(C)C)C(=O)N[C@@H](CCCCN)C(=O)N[C@@H](Cc4c[nH]c5ccccc45)C(=O)N[C@@H](CCCCN)C(=O)N[C@@H](CCC(N)=O)C(=O)N3)NC2=O)C(=O)N[C@@H](Cc2c[nH]c3ccccc23)C(=O)N[C@@H](CCCCN)C(=O)N[C@@H](CCCNC(=N)N)C(=O)N[C@@H](CO)C(=O)NCC(=O)N[C@@H](CO)C(=O)N[C@@H](CCCCN)C(=O)N[C@@H](CO)C(=O)N[C@@H](CO)C(=O)N[C@@H](C(C)C)C(=O)N1)C(=O)N[C@H](C(=O)O)[C@@H](C)O	ASIC1	ion current, outside-out patch clamp	HEK-293T	1 µM	relative to: same patch before toxin	deactivation slowing	2.1 ± 0.4 fold
